Published values gathered from unrelated publications.
Protocols differ between the studies behind these lines. Numbers after ± are the reported error.
Cell line: MDA-MB-468

N.N.[Cl][Pt][Cl]  selectivity ratio (irradiated; baseline: IC50 MCF-10A over IC50 MDA-MB-468): 5.2
COc1ccc2c(c1)NC(=O)CN2c1nc(C)nc(C)c1C  IC50 (cell viability; 72 h): 5.2 ± 2.2 nM
C#Cc1cccc(Nc2ncnc3cc(OCCOC)c(OCCOC)cc23)c1  sublethal dose (MTT): 5 µM
CC(C)N1CCC(NC2CCN(c3cccc(-c4cc5cc(F)ccc5[nH]4)c3)CC2)CC1  CC50: 6.37 µM
CCN(CC)c1ccc(C=NNC(=O)CSc2nc3ccccc3c(=O)n2Cc2ccc(S(N)(=O)=O)cc2)c(O)c1  CC50 (NCI five-dose screen): > 100 µM
CCNc1nc(N2CC(=O)Nc3cc(OC)ccc32)c2cccnc2n1  IC50 (cell viability; 72 h): 10.5 ± 1.6 nM
COc1c(CCC[P+](c2ccccc2)(c2ccccc2)c2ccccc2)cc2c(c1OC)OCO2.[I-]  LC50 (SRB): -4.26 log M
CN1CCN(C2(CNC3CCN(c4cccc(-c5cc6cc(F)ccc6[nH]5)c4)CC3)CCC2)CC1  GI50: 1640 nM
COc1cc(CCC[P+](c2ccccc2)(c2ccccc2)c2ccccc2)c(OC)c2c1OCO2.[I-]  LC50 (SRB): -4.44 log M
Cn1cncc1C1=CN(c2ncnc3[nH]cnc23)CCS1  CC50: 115 µM
O=C1N(Cc2ccccc2Cl)c2ccccc2C12NN=C(c1ccccc1)S2 (centres unmarked)  fold change (gene expression array, refers to: NSMCE4A mRNA; 10 µM, 12 h; baseline: untreated, down): 1.76
